Assay results collected from several papers.
A part holds a random share of what one study measured. Positions count from the first letter of the parent shown.

Sample 1
Target: Transcriptional repressor CTCF (CTCF, Homo sapiens, UniProt P49711, residues 1-727, full length assumed)
Sequence of UniProt P49711 (whole entry, looked up): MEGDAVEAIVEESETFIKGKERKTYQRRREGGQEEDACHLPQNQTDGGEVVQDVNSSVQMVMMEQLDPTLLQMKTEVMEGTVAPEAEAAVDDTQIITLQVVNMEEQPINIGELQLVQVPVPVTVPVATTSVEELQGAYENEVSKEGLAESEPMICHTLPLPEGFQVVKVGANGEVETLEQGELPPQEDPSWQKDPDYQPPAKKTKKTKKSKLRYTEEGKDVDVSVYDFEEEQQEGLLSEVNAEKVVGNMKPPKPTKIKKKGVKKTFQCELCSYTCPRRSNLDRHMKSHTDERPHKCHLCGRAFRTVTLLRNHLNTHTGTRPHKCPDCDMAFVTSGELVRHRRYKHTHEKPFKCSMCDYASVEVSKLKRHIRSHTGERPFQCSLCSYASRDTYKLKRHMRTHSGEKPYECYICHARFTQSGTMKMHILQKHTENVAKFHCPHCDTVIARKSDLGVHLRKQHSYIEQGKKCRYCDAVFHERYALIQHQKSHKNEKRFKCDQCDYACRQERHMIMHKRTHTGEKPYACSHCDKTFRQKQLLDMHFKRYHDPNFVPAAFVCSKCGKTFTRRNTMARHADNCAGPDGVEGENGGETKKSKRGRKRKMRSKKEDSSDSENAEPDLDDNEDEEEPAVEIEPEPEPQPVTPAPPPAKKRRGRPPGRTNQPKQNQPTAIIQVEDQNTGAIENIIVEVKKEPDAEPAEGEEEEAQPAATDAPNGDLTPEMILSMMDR
Technique: protein-binding microarray
Molecule type: double-stranded DNA, one strand shown
Matrix: in vitro
Concentration: not given
Notes: k-mer, scored over probes, only values ≥0.25
Direction: higher = stronger binding
The E-score of `GCGATTAA` is reported as 0.337.
For `ACGCGCGC`, the E-score was 0.379.
For `ACTATTAT`, the E-score was 0.293.
The E-score of `GATTGCAC` is reported as 0.287.
For `ATATTATA`, the E-score was 0.312.
`CTTATTTC` gave an E-score of 0.267.
For `AAAATTTT`, the E-score was 0.311.
`ATCAACAT` has an E-score of 0.269.
For `AAATCAAA`, the E-score was 0.268.
The E-score of `ACGTATAA` is reported as 0.326.
`ATATAGTA` gave an E-score of 0.34.
For `TACTCATA`, the E-score was 0.254.
The E-score of `AACTGAAA` is reported as 0.282.
`GCGATATA` gave an E-score of 0.295.
For `GTATGTAA`, the E-score was 0.304.
For `GCATGATA`, the E-score was 0.297.
`AAATTCCA` has an E-score of 0.277.
The E-score of `AACAAATT` is reported as 0.319.
`AGGAAAAT` has an E-score of 0.271.
`ACTATAAT` gave an E-score of 0.299.
`AATATATC` has an E-score of 0.303.
The E-score of `GTATGTTA` is reported as 0.252.
With `ATACAAAC` the E-score was 0.307.
`AATATATT` has an E-score of 0.427.
For `TAATTATA`, the E-score was 0.338.

Sample 2
Target: RNA binding protein fox-1 homolog 2, RRM domain, GST-SBP tag (RBFOX2, Homo sapiens, UniProt O43251-10, residues 100-194)
Technique: RNA Bind-n-Seq
Molecule type: RNA
Matrix: in vitro
Concentration: 365 nM
Notes: natural RNA segment, single round, ends assumed
Relative to: no-protein control
Direction: higher = stronger binding
Construct (chain): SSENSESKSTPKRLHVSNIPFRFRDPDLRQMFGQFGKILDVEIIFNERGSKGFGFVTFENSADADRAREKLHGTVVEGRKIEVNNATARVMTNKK
For `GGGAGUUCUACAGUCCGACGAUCCCAUGUAAUUUUCCCACUGCCACAGACCUCUCCAACCCAGGGCCCCUGGACAGCACAGAUCCAGUGUGUUGCUGGCACUUGAGGUGUAAUAAAUGGCCUGGGGUGCUGCCUGGAAUUCUCGGGUGCCAA`, “RBNS enrichment (R)” read 0.474.
`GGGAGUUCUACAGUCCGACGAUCUGUCCUAAUCAUACUUAAACAUCAGGCAGGUGGGGUUCAGUGGUAAGCGAAGGGAUUAUUAGCAAGGUAAUGCCUGUGUAUGGUCAUAUAGGCACAAAUGCAGAACACCCUGGAAUUCUCGGGUGCCAA`: “RBNS enrichment (R)” 0.773.
`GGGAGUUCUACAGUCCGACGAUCUUCACUAACUUAUACUUGUCUAUCUAGAAUACAGGUCUUCCAGUCAGCUGGUCAUUUACCAGGUGUGGACUUAAGUUGCUAGGCUUGCAGUAAGAAUUGCCAGCCACUCAUGGAAUUCUCGGGUGCCAA`: “RBNS enrichment (R)” 0.343.
For `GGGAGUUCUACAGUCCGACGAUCGGAGCAGUUGCCCUCAGGCCUGUGCCCAGCAUGCCCUCCCCUUUUUAUACGAAUGUUUUCUACCAGUGUGCUUGGGUUUGCCAUGAUGCGAGGCUGAGUUGCUGUAGCGUUGGAAUUCUCGGGUGCCAA`, “RBNS enrichment (R)” read 15.
For `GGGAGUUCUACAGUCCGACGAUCCACCGCUCCCUUGGACGGGCUGCGACCCGCCAUCCUGGGGGUCAACACAGGAGGACAGAAGAGAGUGGAGCACAGGACCAUAGGGGUUCCAGAAAACUGUCACAGAGCACUGGAAUUCUCGGGUGCCAA`, “RBNS enrichment (R)” read 0.343.
`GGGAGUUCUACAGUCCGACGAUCACAAGAGCAAAACUCCGUCUCAAAAAAAAAAAAAAGAUACAAAGUCUGCAUUUGAUAUAAUGCCUUAAUUACUGGGUCUACAAUUAAUGUUGACUGUUUUAGAUUGUAAGUGGAAUUCUCGGGUGCCAA`: “RBNS enrichment (R)” 0.527.
For `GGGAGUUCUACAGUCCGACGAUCUUAACUUUUCUGAUGCCUUAAAAGUGAACUUCUUUAAAGAACCUUUGUGCUAUUUUAUCACAGGCUUACACUACAAUUGUUAAUAAAUACUUCAUUUGGAGAUGUAUGGUUGGAAUUCUCGGGUGCCAA`, “RBNS enrichment (R)” read 0.312.
Under “RBNS enrichment (R)”, `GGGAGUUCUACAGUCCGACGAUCCCACGUCUGGCUGCUGAUGAACGGUUUAGCCCAGUGACUUCCCUCUGUGUAGCUGAGCAAGGUCUGCUCUCCAGAGGAACACAUCUGCAUUGAACACAUCUGCAAGUACAUGGAAUUCUCGGGUGCCAA` is recorded as 0.544.
`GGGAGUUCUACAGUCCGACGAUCAAGGAAAUAAAGGUAAAAUCACUUCAGAUCUCUAAUUAUCAAGCGAAGCUUUUAUUGUUACACUUCUUACCCUCUUUCAUAUCCAAAAUUGCCAAGUGCCUCUGCAGACUUGGAAUUCUCGGGUGCCAA` — result for “RBNS enrichment (R)”: 0.399.
For `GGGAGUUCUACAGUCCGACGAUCAUAAUACAGCAGGUAUAAUUACACCAAGCGCUAUAGUUAUAAAUAUGGCAUGAAGUGAACUAUGGCCUUUUAUUUCCUUCCAGUGUGAACACAGCAGGUGUGAGAUGUCAUGGAAUUCUCGGGUGCCAA`, “RBNS enrichment (R)” read 0.643.
`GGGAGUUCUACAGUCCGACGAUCCGACAAAAUCUAUUCUAAUGUGGCUUUUUAUGGAGGGUGUAACUGUAAUGUAUUCAAAAUUGUCAGUGUGGUGGCAUCAAAUAUGUAGAGAUGGUCUUUCUGUGGAGAAUUGGAAUUCUCGGGUGCCAA` — result for “RBNS enrichment (R)”: 1.99.
`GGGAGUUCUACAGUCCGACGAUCUUACCCUGUUACUCAGCCACGCCGUGUGUAGGCUUAGCCUCAGGUGGCAGAUGUUUGAGGAAAGGAAUUAUGCCAGGAAGGUGGGACCGGGUUAUGGUCGGGUUUCUAUUUGGAAUUCUCGGGUGCCAA` — result for “RBNS enrichment (R)”: 0.296.

Sample 3
Target: Histone acetyltransferase KAT6A, winged helix 2, GST fusion (KAT6A, Homo sapiens, UniProt Q92794, residues 85-181)
Technique: protein binding microarray
Molecule type: double-stranded DNA, one strand shown
Matrix: in vitro
Concentration: not given
Notes: 8-mer, flanks averaged, mean of 2 arrays, mostly near background
Relative to: not given
Direction: higher = stronger binding
Target sequence (chain): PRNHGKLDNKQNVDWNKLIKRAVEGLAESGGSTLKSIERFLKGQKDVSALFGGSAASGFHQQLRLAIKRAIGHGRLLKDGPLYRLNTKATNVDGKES
For `AGCTCAGG`, the E-score was 0.0965.
With `AAACCGTC` the E-score was 0.0767.
The E-score of `AGGGATCC` is reported as -0.105.
The E-score of `AGGAAGGA` is reported as -0.165.
`ATGACGGC` gave an E-score of -0.0989.
For `CCGGATAC`, the E-score was -0.0599.
The E-score of `GGTAGCAA` is reported as 0.0324.
`AAGTGAGG` gave an E-score of -0.0551.
With `AATGTGGC` the E-score was 0.0145.
The E-score of `AAAACGCT` is reported as -0.133.
For `CAGCAATC`, the E-score was 0.109.
For `TCCAAAAA`, the E-score was 0.0548.
`AGCTCTCA` gave an E-score of 0.126.
The E-score of `CAGCACCG` is reported as 0.0265.
`ACACTTCC` has an E-score of -0.194.
`AGTTTTCC` gave an E-score of 0.0567.
`GAATATGA` has an E-score of -0.0865.
`GCTCTCCA` gave an E-score of -0.151.
With `ATCTATCC` the E-score was -0.0434.
For `CCCCTGAC`, the E-score was 0.21.
`CAGCCTGC` has an E-score of 0.11.
`GGCGGTTA` has an E-score of -0.00322.
`CCTCGAGG` gave an E-score of -0.0212.

Sample 4
Target: CCND3, cyclin fold, Cln2 fusion (human)
Technique: yeast growth competition, sequencing
Matrix: yeast
Notes: weak parent motif
Relative to: not given
Direction: higher = stronger binding
Starting sequence: CDC25A docking peptide (human); PPHRRRLLFACSP; partner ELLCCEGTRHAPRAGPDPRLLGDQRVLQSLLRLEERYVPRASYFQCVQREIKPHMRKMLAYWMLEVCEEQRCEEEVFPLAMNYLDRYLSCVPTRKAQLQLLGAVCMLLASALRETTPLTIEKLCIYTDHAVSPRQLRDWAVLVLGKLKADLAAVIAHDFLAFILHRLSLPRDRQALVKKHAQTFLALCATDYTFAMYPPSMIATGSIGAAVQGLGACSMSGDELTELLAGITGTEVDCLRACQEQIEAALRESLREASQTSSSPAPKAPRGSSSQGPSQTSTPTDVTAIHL
`PPHRRMLLFACSP [R6M]` — result for “normalised enrichment score”: 0.227.
`PWHRRRLLFACSP [P2W]`: “normalised enrichment score” 0.139.
For `RPHRRRLLFACSP [P1R]`, “normalised enrichment score” read 0.198.
`PPVRRRLLFACSP [H3V]`: “normalised enrichment score” 0.113.
`PPHRRRLLVACSP [F9V]` — result for “normalised enrichment score”: 0.117.
Under “normalised enrichment score”, `PPHRRRLLFACYP [S12Y]` is recorded as 0.161.
For `PPHRAAAAFACSP [R5A R6A L7A L8A]`, “normalised enrichment score” read 0.089.
For `PPERRRLLFACSP [H3E]`, “normalised enrichment score” read 0.0854.
`PPRRRRLLFACSP [H3R]`: “normalised enrichment score” 0.175.
Under “normalised enrichment score”, `PPHRRRLLFAKSP [C11K]` is recorded as 0.0274.
`PPHRPRLLFACSP [R5P]`: “normalised enrichment score” 0.128.
`PPHRRRLLFACQP [S12Q]`: “normalised enrichment score” 0.0755.
`PPHRRRLDFACSP [L8D]`: “normalised enrichment score” 0.0878.
`PPHRRRLLFAQSP [C11Q]` — result for “normalised enrichment score”: 0.126.
`APHRRRLLFACSP [P1A]` — result for “normalised enrichment score”: 0.072.
Under “normalised enrichment score”, `PPHRYRLLFACSP [R5Y]` is recorded as 0.0643.
`PPHRRRLLFANSP [C11N]`: “normalised enrichment score” 0.0175.
